Measured values from different studies.
Each numbered part is a random draw from the data of one study; scales do not carry over between parts. Changes are numbered by the printed parent chain.
Chain of UniProt P00519 (whole entry, unmodified, looked up): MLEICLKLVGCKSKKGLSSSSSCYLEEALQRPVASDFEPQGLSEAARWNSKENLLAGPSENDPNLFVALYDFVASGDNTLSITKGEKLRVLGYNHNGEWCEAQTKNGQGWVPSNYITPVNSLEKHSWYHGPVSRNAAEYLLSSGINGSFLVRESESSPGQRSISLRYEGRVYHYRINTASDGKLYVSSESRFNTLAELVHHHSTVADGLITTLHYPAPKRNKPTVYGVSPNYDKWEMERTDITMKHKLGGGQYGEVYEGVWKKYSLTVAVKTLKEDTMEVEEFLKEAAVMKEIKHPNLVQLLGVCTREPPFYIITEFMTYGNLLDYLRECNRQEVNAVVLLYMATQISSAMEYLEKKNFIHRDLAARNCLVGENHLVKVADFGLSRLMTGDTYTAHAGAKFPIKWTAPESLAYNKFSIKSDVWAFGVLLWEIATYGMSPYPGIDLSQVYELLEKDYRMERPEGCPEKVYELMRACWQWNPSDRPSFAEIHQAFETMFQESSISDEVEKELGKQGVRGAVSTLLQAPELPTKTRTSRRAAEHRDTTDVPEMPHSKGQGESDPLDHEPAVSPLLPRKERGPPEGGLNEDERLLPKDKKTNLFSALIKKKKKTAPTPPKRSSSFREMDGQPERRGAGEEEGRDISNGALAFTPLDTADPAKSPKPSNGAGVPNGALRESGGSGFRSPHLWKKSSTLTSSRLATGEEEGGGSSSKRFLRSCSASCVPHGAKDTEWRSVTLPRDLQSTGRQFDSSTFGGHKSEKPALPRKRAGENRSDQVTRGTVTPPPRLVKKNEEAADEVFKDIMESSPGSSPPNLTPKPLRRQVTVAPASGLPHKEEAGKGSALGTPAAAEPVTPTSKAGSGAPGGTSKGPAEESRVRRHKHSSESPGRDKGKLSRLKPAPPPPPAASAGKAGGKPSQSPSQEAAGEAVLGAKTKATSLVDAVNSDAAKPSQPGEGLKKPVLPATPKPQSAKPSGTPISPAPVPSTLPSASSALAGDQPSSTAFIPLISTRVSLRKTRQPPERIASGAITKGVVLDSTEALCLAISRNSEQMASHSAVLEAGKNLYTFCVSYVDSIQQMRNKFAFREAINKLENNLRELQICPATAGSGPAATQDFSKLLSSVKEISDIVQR
Chain of UniProt P48730 (whole entry, looked up): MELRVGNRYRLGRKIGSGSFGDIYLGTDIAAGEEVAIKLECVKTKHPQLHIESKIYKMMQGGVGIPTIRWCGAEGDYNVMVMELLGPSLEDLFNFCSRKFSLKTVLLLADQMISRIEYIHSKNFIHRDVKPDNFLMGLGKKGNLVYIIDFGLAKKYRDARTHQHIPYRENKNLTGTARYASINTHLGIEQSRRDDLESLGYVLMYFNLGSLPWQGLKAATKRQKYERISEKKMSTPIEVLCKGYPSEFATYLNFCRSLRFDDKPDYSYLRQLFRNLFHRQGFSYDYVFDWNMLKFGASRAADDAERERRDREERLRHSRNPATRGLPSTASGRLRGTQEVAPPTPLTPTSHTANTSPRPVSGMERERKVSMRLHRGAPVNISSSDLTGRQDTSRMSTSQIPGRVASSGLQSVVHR
Chain of UniProt P30291 (whole entry, looked up): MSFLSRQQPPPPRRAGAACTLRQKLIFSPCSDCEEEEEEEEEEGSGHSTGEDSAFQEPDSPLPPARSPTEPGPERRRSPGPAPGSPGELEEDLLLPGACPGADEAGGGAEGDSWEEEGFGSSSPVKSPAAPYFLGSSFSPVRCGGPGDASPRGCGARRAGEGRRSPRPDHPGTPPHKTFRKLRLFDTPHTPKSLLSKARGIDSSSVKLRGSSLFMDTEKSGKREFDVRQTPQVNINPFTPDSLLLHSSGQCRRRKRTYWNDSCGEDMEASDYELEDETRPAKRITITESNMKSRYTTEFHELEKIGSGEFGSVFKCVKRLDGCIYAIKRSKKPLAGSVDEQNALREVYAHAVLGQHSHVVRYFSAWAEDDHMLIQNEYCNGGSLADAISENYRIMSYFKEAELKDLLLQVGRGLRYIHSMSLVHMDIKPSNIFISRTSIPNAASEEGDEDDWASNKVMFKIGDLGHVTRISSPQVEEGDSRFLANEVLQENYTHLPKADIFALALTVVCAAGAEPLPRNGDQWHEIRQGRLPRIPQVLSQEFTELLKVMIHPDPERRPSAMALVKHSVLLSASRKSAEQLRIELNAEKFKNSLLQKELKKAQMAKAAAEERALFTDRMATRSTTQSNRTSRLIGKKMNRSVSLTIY
Chain of UniProt Q99759 (whole entry, looked up): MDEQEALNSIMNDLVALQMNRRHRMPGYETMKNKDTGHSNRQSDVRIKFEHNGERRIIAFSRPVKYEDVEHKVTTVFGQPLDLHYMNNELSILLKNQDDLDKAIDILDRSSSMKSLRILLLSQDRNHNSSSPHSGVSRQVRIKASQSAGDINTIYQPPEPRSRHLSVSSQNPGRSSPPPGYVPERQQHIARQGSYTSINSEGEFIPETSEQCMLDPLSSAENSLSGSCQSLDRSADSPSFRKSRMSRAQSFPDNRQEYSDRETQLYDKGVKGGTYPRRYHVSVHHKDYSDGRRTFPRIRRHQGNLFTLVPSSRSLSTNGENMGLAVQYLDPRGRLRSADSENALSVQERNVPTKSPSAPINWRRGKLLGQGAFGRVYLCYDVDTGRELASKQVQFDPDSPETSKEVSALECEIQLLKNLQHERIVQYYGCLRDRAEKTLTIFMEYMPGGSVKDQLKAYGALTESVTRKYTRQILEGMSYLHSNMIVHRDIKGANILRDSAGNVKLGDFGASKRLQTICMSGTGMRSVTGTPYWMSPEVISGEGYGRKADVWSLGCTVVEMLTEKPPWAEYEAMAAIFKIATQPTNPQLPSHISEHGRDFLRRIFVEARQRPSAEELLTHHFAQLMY
Chain of UniProt Q9BWU1 (whole entry, looked up): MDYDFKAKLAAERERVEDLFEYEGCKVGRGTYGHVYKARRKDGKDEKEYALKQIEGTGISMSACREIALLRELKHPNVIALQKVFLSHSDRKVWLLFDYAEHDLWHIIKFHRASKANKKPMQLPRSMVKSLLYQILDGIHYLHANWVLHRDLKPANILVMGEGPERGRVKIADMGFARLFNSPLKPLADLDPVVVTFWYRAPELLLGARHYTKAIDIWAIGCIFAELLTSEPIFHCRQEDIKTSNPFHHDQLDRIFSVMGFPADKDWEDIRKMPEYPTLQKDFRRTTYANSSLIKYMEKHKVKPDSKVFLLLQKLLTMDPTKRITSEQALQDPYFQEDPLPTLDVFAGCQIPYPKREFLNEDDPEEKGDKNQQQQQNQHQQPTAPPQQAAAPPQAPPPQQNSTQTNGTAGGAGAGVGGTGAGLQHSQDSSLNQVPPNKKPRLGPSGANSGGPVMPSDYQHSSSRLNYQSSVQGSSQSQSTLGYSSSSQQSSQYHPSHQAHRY

Series 1
Target: CCNA2, cyclin fold, Cln2 fusion (human)
Method: yeast growth competition, sequencing
Medium: yeast
Setting: strong parent motif
Baseline: not given
Direction: higher = stronger binding
Starting sequence: CDC25A docking peptide (human); PPHRRRLLFACSP
Variant	normalised enrichment score
PPNRRRLLFACSP [H3N]	1.54
LPHRRRLLFACSP [P1L]	2.41
YPHRRRLLFACSP [P1Y]	2.78
QPHRRRLLFACSP [P1Q]	2.37
PPHRRRFLFACSP [L7F]	1.89
PPHRRRLLFRCSP [A10R]	2.28
PPGRRRLLFACSP [H3G]	3.63
PPHRRRLLFACSF [P13F]	1.59

Series 2
Target: Sal-like protein 4, full length isoform B (SALL4, Homo sapiens, UniProt Q9UJQ4-2, residues 1-616)
Method: universal PBM
Molecule type: double-stranded DNA, one strand shown
Medium: in vitro
Concentration: not given
Setting: 8-mer, flanks averaged, mean of replicates
Direction: higher = stronger binding
Oligonucleotide	E-score
AGATACCT	-0.0612
AACGGGCC	-0.208
AAATAGGT	0.186
GGTAATCA	0.0524
CGCACAAA	0.0144
AAAAAAAA	0.34
AGGCCGAC	-0.408
CGGCGCTA	-0.251

Series 3
SMILES: Cc1nc(Cc2cccc(C(F)(F)F)c2)sc1-c1ccc(C(N)=O)nc1
Concentration: 1 µM
target	effect on	method	remaining binding [%]
CDK19 (Homo sapiens, UniProt Q9BWU1)	–	competition binding	98
CSNK1D (Homo sapiens, UniProt P48730)	cell-free assay	competition with immobilised ligand	75
MAP3K3 (Homo sapiens, UniProt Q99759)	cell-free assay	competition with immobilised ligand	97
WEE1 (Homo sapiens, UniProt P30291)	cell-free assay	competition with immobilised ligand	96
Tyrosine-protein kinase ABL1, non-phosphorylated (ABL1, Homo sapiens, UniProt P00519, F317L)	cell-free assay	competition with immobilised ligand	93

Other studies, line by line
Structure (SMILES)	medium	quantity	result
CCC[C@@H]1NC(=O)CSC[C@@H](C(=O)OCC)N(C)C(=O)[C@H](CC(C)C)NC(=O)[C@H](C)N(C)C(=O)[C@@H](CC(C)C)NC(=O)[C@H](C)N(C)C(=O)[C@@H]2CCCN2C(=O)[C@H](CC(C)C)NC(=O)CN(CCC)C1=O	hydrocarbon/water	logD	0.664

Excerpt of the above (series 1):
Variant	normalised enrichment score
QPHRRRLLFACSP [P1Q]	2.37
PPNRRRLLFACSP [H3N]	1.54
